Measurements of several laboratories.
A part holds a random share of what one study measured. ± marks the error that the study gave. Converted amounts (≈) assume the structure as drawn.

Sample 1 — organism: SARS-CoV-2 Wuhan spike VSV pseudovirus; read-out: pseudovirus entry; concentration: concentration not given
SMILES | inhibition [%]
COc1ccc(C(=O)Nc2nc3c(s2)CN(Cc2ccccc2)CC3)cc1 | 45
c1ccc(-c2cn3c(n2)CCc2ccc4cccnc4c2-3)cc1 | 46
Cc1csc(NC(=O)c2cn(-c3ccc(-c4noc(C5CC5)n4)cc3)nc2C)n1 | 38
C=C(C)C1Cc2c(ccc3c2O[C@@H]2COc4cc(OC)c(OC)cc4[C@@H]2C3=O)O1 (some centres unmarked) | 41
O=[N+]([O-])c1ccc(S(=O)(=O)c2ccccc2)nc1S(=O)(=O)c1ccccc1 | 40
Clc1ccc2c(Sc3nnnn3C3CCCC3)ccnc2c1 | 44
Cc1cc2c(cc1S(=O)(=O)N1CCCC(C(=O)N3CC(=O)Nc4ccccc43)C1)OCC(=O)N2 (centres unmarked) | 41
COc1ccc(Br)cc1C1CC(=O)Nc2c1c(C)nn2-c1nc2ccccc2[nH]1 (centres unmarked) | 40
Cc1cc2nc3n(c2cc1C)C(O)C=C(C(C)(C)C)S3 (centres unmarked) | 45
Cc1ccc(/C(C#N)=C2\C=C(Br)C(=NO)C=C2Cl)cc1 | 38
COc1c(F)c(F)c(CN2CC=C(c3cnn(C)c3)CC2)c(F)c1F | 41
COc1ccc(C(CC(=O)c2ccco2)Sc2cccc3cccnc23)cc1OC (centres unmarked) | 42
Cc1ccc(C2NC(=O)N(CC(=O)NC3CCCCC3)C3=C2C(=O)OC3)cc1 (centres unmarked) | 38
CSc1cccc(NC(=O)Cn2c(C)cc(-c3nnc(C)o3)c2C)c1 | 39
CCN(c1ccc2sc(C(=O)Nc3ccc(C)c(Cl)c3)cc2c1)S(C)(=O)=O | 50
Cc1onc(-c2c(Cl)cccc2Cl)c1C(=O)On1c(-c2ccccc2)nc2ccccc2c1=O | 44
NC(=O)c1ccc(N2CCN(Cc3ccc(-c4ccccn4)cc3)CC2)nc1 | 43
CC(=O)N[C@@H]1CN(C(=O)CCc2c[nH]c3ccccc23)C[C@H]1CO | 48
NC(=O)OC(c1ccccc1)C(Cl)(Cl)Cl (centres unmarked) | 40

Other studies, line by line
rep papain-like protease: Replicase polyprotein 1ab, papain-like protease (rep, Severe acute respiratory syndrome coronavirus 2, UniProt P0DTD1)
rep nsp12 RdRp: Replicase polyprotein 1ab, nsp12 RdRp (rep, Severe acute respiratory syndrome coronavirus 2, UniProt P0DTD1)
rep nsp14: Replicase polyprotein 1ab, nsp14 (rep, Severe acute respiratory syndrome coronavirus 2, UniProt P0DTD1)
Substance | tested on | assay | test system | conditions | scale | measurement | result
CCn1c(-c2nonc2N)nc2c(C#CC(C)(C)O)ncc(OC[C@H]3CCCNC3)c21 | rep papain-like protease | – | – | concentration not given, C111S mutant | relative to: positive control | activity | 14.4%
Cc1ccc2c(c1)C1(CCN(CCc3nc(-c4ccccc4)oc3C)CC1)OC(=O)N2 | rep nsp12 RdRp | binding, biolayer interferometry | – | concentration not given | – | BLI response | 0.01 nm
N#C[C@@]1(n2ccc(N)nc2=O)O[C@H](CO)[C@@H](O)[C@H]1O | SARS-CoV-2 | viral replication | Calu-3, Beta | – | – | EC50 | 200 ± 200 nM
CCN(CC)C12C3CCC4C3C3C(CCC31)C42.Cl | Matrix protein 2 (Influenza A virus, UniProt P0DOF5, V27A) | – | – | concentration not given, pH 5.5, cell-based | – | inhibition | 0%
SLVRVTAAQSTIEEQAKTFLDKFN | SARS-CoV-2 spike RBD | peptide spot array | peptide | concentration not given | relative to: wild-type ACE2 peptide | relative binding | 3.03
CC(C)=CCNc1ncnc2c1ncn2[C@@H]1O[C@H](CO)[C@@H](O)[C@H]1O | SARS-CoV-2 | cytopathic effect | Vero C1008, Omicron BA.1 | 48 h | – | IC100 | 1.08 µM
C[C@@H]1O[C@@H](O[C@@H]2[C@@H](O)[C@H](OCCc3ccc(O)c(O)c3)O[C@H](CO)[C@H]2OC(=O)/C=C/c2ccc(O)c(O)c2)[C@H](O)[C@H](O)[C@H]1O | rep nsp12 RdRp | binding, biolayer interferometry | – | 50 µM | – | BLI response | 0.02 nm
CCC(CC)[C@H](NC(C)=O)[C@@H]1[C@H](O)[C@@H](C(=O)O)C[C@H]1N=C(N)N | neuraminidase (Influenza B virus, UniProt A0A1S5RAG6, D197N) | – | – | – | – | IC50 | 2.7 ± 0.2 nM
[H]/N=C(/N)N[C@H]1[C@H](O)[C@@H](O)[C@H](O[C@@H]2O[C@@H](C)[C@](O)(C=O)[C@H]2O[C@@H]2O[C@@H](CO)[C@H](O)[C@@H](O)[C@@H]2NC)[C@@H](N/C(N)=N\[H])[C@@H]1O | Mycobacterium tuberculosis | Alamar blue | 22/22, SIRE and linezolid resistant | 21 days, 37 °C | – | MIC | 32 µg/mL (≈ 55 µM)
CC(C)(C)[C@H](NC(=O)C(F)(F)F)C(=O)N1C[C@H]2[C@@H]([C@H]1C(=O)N[C@H](C#N)C[C@@H]1CCNC1=O)C2(C)C | SARS-CoV-2 | replicon replication | A4136V/S4145N Mpro cleavage site replicon | – | – | EC50 | 17 nM
O=C(Cc1cccc(OC(F)(F)F)c1)Nc1ccc(CCCCc2nnc(NC(=O)Cc3ccccn3)s2)nn1 | rep papain-like protease | – | – | concentration not given, C111S mutant | relative to: positive control | activity | 14.9%
COc1nc(N)nc2c1ncn2[C@@H]1O[C@H](CO)[C@@H](O)[C@@H]1O | SARS-CoV-2 | viral RNA copies | Vero C1008, Omicron BA.1 | 48 h | – | EC50 | 1760 ± 80 nM
O=C(NC1CCN(c2ncnc3[nH]cnc23)CC1)c1cccc(S(=O)(=O)N2CCCCC2)c1 | rep nsp14 | NSP14 enzyme activity, inhibitor | – | 50 µM | – | inhibition | 83.7%
CCc1cc(=O)c2c(OCC3CO3)c3ccoc3c(OC)c2o1 (centres unmarked) | Mycobacterium tuberculosis | Alamar blue | 22/22, SIRE and linezolid resistant | 21 days, 37 °C | – | MIC | 32 µg/mL (≈ 101 µM)
C1C2C1C1C3C4C5C6CC6C4C14CNCC54C23.Cl (centres unmarked) | Matrix protein 2 (Influenza A virus, UniProt P0DOF5, S31N) | – | – | concentration not given, pH 5.5, cell-based | – | inhibition | 0%
CN(C)CCn1c(C(=O)N2CCN(c3ccccc3Cl)CC2)c(C(c2ccc(O)cc2)c2ccc(O)cc2)c2ccccc21 | SARS-CoV-2 | viral replication | 293T-ACE2, USA-WA1/2020 | – | – | EC90 | ~107 nM
Nc1ncnc2c1ncn2[C@@H]1O[C@H](CSCC[C@H](N)C(=O)O)[C@@H](O)[C@H]1O | rep nsp14 | thermal shift | – | 3.7 µM | – | ΔTm | 1.7 °C
SLVAVTAAQSTIEHQAKTFLDKFN | SARS-CoV-2 spike RBD | peptide spot array | peptide | concentration not given | relative to: wild-type ACE2 peptide | relative binding | 3.27
CCC(CC)COC(=O)[C@H](C)N[P@](=O)(OC[C@H]1O[C@@](C#N)(c2ccc3c(N)ncnn23)[C@H](O)[C@@H]1O)Oc1ccccc1 | SARS-CoV-2 Omicron | viral replication | Calu-3 | – | – | EC50 | 100 ± 50 nM

Excerpt of the above (sample 1):
SMILES | inhibition [%]
Clc1ccc2c(Sc3nnnn3C3CCCC3)ccnc2c1 | 44
Cc1cc2c(cc1S(=O)(=O)N1CCCC(C(=O)N3CC(=O)Nc4ccccc43)C1)OCC(=O)N2 (centres unmarked) | 41
